# Measurements from different studies.
# Values joined by “and” are separate records of one study, mostly repeats; a detail may differ. Numbers after ± are the reported error.
# UniProt Q00535, sequence (whole entry, looked up): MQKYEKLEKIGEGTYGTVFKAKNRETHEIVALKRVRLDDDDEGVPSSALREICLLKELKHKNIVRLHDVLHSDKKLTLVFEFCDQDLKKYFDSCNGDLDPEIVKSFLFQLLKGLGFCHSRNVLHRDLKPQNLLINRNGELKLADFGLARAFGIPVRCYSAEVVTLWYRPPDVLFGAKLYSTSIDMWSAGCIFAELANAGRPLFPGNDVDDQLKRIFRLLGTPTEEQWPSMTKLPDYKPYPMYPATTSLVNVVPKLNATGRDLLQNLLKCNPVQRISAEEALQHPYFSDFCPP
# UniProt P10635, sequence (whole entry, looked up): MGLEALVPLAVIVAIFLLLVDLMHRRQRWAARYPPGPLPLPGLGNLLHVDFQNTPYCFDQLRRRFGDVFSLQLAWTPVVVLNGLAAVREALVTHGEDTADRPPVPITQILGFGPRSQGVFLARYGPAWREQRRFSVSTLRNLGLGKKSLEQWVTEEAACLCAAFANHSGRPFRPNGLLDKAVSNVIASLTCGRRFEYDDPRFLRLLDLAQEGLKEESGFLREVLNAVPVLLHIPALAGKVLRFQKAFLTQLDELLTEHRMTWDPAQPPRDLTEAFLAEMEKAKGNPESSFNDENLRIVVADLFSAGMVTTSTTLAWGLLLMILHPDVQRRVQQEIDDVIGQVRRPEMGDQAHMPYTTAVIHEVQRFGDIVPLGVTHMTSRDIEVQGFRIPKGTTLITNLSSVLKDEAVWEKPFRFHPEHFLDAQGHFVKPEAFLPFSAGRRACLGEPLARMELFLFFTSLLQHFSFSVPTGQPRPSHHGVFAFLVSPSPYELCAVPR
# UniProt Q86Z02, sequence (whole entry, looked up): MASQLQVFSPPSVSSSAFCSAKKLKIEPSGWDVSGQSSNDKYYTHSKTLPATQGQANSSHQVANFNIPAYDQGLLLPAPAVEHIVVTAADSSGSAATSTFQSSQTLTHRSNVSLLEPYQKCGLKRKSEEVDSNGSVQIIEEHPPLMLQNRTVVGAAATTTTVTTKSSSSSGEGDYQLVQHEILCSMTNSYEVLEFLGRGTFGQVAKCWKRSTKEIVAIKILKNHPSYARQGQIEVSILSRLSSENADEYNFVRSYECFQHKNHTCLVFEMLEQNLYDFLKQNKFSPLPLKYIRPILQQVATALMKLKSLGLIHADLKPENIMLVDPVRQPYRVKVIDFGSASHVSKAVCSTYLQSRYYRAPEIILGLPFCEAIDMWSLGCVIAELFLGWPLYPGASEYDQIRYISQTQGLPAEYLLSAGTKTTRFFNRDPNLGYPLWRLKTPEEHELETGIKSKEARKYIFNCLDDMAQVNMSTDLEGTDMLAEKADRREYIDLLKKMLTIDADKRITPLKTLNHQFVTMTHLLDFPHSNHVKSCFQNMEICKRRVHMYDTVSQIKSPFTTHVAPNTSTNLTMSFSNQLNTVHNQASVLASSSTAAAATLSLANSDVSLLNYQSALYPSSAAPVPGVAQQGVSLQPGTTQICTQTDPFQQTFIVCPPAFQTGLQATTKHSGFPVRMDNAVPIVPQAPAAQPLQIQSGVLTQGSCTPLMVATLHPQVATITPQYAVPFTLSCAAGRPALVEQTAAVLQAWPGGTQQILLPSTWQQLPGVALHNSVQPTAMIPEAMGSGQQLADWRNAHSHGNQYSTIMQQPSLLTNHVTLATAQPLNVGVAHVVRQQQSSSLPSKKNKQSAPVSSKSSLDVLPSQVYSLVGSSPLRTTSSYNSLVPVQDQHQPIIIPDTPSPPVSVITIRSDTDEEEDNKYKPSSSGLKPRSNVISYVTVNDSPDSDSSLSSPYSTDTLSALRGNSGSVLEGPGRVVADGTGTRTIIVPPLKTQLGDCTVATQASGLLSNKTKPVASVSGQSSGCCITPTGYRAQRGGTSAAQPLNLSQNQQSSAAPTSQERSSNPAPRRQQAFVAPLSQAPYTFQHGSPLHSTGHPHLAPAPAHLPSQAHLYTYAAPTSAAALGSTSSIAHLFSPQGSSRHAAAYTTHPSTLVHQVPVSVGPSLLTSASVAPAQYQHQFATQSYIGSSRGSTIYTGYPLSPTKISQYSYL
# UniProt Q8NEB9, sequence (whole entry, looked up): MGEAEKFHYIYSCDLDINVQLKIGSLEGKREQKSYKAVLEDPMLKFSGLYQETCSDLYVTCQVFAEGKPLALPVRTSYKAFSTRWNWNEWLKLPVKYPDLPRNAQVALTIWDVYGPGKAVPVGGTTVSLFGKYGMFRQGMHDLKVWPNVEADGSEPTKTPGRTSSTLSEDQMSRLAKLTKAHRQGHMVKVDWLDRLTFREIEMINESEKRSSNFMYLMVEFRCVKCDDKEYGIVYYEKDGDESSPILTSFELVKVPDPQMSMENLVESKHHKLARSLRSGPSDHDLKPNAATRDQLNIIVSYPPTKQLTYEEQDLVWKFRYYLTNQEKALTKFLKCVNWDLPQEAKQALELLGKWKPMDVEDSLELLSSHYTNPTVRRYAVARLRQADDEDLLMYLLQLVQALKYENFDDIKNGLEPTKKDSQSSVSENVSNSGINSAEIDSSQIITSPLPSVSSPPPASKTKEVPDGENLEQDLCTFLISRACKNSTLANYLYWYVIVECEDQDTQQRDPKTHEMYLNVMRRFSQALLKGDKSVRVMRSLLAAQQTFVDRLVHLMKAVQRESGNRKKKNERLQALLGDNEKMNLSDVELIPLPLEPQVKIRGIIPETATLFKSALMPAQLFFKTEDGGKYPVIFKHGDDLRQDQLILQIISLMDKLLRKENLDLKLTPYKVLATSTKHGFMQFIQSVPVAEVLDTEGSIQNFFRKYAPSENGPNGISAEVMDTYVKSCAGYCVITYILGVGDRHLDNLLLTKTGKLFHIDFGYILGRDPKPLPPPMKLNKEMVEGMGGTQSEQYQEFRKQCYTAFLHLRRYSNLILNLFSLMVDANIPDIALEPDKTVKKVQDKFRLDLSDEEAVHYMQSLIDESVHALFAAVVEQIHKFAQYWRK
# UniProt Q7L7X3, sequence (whole entry, looked up): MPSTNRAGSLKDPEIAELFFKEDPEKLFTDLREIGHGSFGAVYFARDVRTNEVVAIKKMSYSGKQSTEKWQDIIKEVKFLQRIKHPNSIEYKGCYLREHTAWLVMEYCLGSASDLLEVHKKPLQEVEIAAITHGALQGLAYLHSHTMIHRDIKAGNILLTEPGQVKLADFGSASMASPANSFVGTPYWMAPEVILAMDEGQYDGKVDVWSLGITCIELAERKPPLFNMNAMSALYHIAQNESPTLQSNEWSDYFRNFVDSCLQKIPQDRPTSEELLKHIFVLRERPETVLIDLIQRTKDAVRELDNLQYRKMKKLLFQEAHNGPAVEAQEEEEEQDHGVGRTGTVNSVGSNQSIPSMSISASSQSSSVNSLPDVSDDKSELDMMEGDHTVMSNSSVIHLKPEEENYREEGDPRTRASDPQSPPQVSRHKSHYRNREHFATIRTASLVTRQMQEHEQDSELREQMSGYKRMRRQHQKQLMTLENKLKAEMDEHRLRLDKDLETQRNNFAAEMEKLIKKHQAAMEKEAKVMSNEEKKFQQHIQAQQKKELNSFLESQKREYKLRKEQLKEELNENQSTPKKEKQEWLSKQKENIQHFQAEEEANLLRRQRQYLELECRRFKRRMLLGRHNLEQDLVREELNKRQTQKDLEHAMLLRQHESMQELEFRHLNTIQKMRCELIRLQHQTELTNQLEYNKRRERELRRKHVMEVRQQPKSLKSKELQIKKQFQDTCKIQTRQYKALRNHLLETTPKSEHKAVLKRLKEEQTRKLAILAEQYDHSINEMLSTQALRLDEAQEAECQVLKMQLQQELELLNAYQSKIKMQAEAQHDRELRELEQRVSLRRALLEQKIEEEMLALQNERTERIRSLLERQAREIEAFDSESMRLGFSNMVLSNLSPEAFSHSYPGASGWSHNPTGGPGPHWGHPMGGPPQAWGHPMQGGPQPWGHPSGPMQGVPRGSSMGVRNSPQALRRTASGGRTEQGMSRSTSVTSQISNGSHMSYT
SMILES,tested on,test,system,conditions,scale,endpoint,value
CCCCCCCCCCCCCC(=O)N[C@H](CCN)C(=O)N[C@@H]1C(=O)N[C@@H](CCN)C(=O)N[C@@H](CC(C)C)C(=O)N[C@@H](CCN)C(=O)N[C@H](Cc2ccccc2)C(=O)N[C@@H](CC(C)C)C(=O)N[C@@H](CCN)C(=O)N[C@H](CCN)C(=O)N[C@@H](C(C)C)C(=O)N[C@@H](CC(=O)O)C(=O)O[C@@H]1C,,,rat,"intravenous, 5 mg/kg",,AUC extrapolated percentage,0.81 ± 0.42%
CCCCCCCCCCCCCCCC(=O)N[C@@H](CCC(=O)NCCOCCOCCC(=O)NCCOCCOCCC(=O)NCCCC[C@H](NC(=O)[C@H](CC(=O)O)NC(=O)[C@H](CC(C)C)NC(=O)[C@H](Cc1ccc(O)cc1)NC(=O)[C@H](CCCCN)NC(=O)[C@H](CO)NC(=O)[C@H](Cc1ccc(O)cc1)NC(=O)[C@H](CC(=O)O)NC(=O)[C@H](CO)NC(=O)[C@@H](NC(=O)[C@H](Cc1ccccc1)NC(=O)[C@@H](NC(=O)CNC(=O)[C@H](CCC(N)=O)NC(=O)[C@@H](CO)NC(=O)[C@@H](N)Cc1c[nH]cn1)[C@@H](C)O)[C@@H](C)O)C(=O)N[C@@H](CCCNC(=N)N)C(=O)N[C@@H](CCCNC(=N)N)C(=O)N[C@@H](C)C(=O)N[C@@H](CCC(N)=O)C(=O)N[C@@H](CC(=O)O)C(=O)N[C@@H](Cc1ccccc1)C(=O)N[C@H](C(=O)N[C@@H](CCC(N)=O)C(=O)N[C@@H](Cc1c[nH]c2ccccc12)C(=O)N[C@@H](CC(C)C)C(=O)N[C@@H](CC(C)C)C(=O)N[C@@H](CC(N)=O)C(=O)N[C@H](C(=O)NCC(=O)NCC(=O)N1CCC[C@H]1C(=O)N[C@@H](CO)C(=O)N[C@@H](CO)C(=O)NCC(=O)N[C@@H](C)C(=O)N1CCC[C@H]1C(=O)N1CCC[C@H]1C(=O)N1CCC[C@H]1C(=O)N[C@@H](CO)C(N)=O)[C@@H](C)O)C(C)C)C(=O)O,,,"rhesus monkey, plasma","subcutaneous, 5 µg/kg, single dose",,Cmax,1.96 ng/mL
[18F]c1cc(-c2ccc3c(n2)[nH]c2ccncc23)ccn1,,PET imaging,"Sprague-Dawley rat, both sexes",intravenous bolus,,brain initial uptake,2.5 to 2.8 SUV
CS(C)(=O)=Nc1ccc(-c2ccc(-c3nc4cc(O[C@@H]5CO[C@H]6[C@@H]5OC[C@H]6O)[nH]c4cc3F)cc2)cc1,"Serine/threonine-protein kinase TAO1 (TAOK1, Homo sapiens, UniProt Q7L7X3)","enzyme activity, inhibitor",,10 µM,,inhibition,6%
CC(C)[C@H](NC(=O)[C@@H](NC(=O)[C@H](CCCNC(=N)N)NC(=O)[C@H](CCCNC(=N)N)NC(=O)[C@H](CCCNC(=N)N)NC(=O)[C@H](CCC(N)=O)NC(=O)[C@H](CCCNC(=N)N)NC(=O)[C@H](CCCNC(=N)N)NC(=O)[C@H](CCCCN)NC(=O)[C@H](CCCCN)NC(=O)[C@H](CCCNC(=N)N)NC(=O)CN)[C@@H](C)O)C(=O)N[C@H](C(=O)N[C@@H](CO)C(=O)N1CCC[C@H]1C(=O)O)[C@@H](C)O,,,"ICR mice, male, heart","intranasal, 20 mg/kg daily, 4 weeks",,organ weight,0.22 ± 0.031 g
COc1cnc2cccc(N3CCc4c(cc(Cn5ccnc5)cc4-c4cn(C)nc4C(F)(F)F)C3=O)c2c1,,,"BALB/c nude mice, MV4-11 xenograft","intraperitoneal, 100 mg/kg, day 17",,body weight,20.6 g and 23.2 g and 22.3 g and 22.1 g and 25.1 g
COc1ccccc1-c1n[nH]c2nc(N[C@H]3CC[C@H](NS(=O)(=O)CC(C)C)CC3)ncc12,,"bead binding, competition bead pull-down, item: LINJ.19.1510",Leishmania donovani extract,10 µM,reference: vehicle,relative abundance,0.65
Cn1nc(NS(C)(=O)=O)c2c(Cl)ccc(-n3c([C@H](Cc4cc(F)cc(F)c4)NC(=O)Cn4nc(C(F)F)c5c4C(F)(F)[C@@H]4C[C@H]54)nc4nc(OCCC(F)(F)F)ccc4c3=O)c21,,,"human, plasma","oral, 125 mg single dose, powder in bottle, median",,tmax,10 h
O=C1NC(=O)c2c1c1cc(F)c[n+]3c1c1c2c2cc(O)ccc2[n]1[Ru-4]312([N]=C=S)[S+]3CC[S+]1CC[S+]2CC3 (stereo not shown),"Cyclin-dependent kinase 5, with p25 (CDK5, Homo sapiens, UniProt Q00535)",enzyme activity,,"100 nM, human enzyme, together with: 10 µM ATP",reference: untreated,remaining activity,69%
CN(C)[C@H]1C[C@@]23CC[C@@]4(O2)C(=CC[C@]2(C)[C@@H](c5ccc6ccncc6c5)CC[C@H]24)C=C3[C@@H](O)[C@@H]1O,"Phosphatidylinositol 3-kinase catalytic subunit type 3 (PIK3C3, Homo sapiens, UniProt Q8NEB9)","ATP probe labelling, inhibitor, KiNativ profiling",,0.1 µM,,inhibition,1.2%
CC(C)[C@H]1NC(=O)C[C@H]2/C=C/CCSSC[C@@H](NC1=O)C(=O)N[C@H](Cc1cccc3ccccc13)C(=O)NCC(=O)O2,"Homeodomain-interacting protein kinase 1 (HIPK1, Homo sapiens, UniProt Q86Z02)","enzyme activity, inhibitor",,10 µM,,inhibition,0.6%
CCN(CC)CCOc1ccc(-c2nnn(Cc3ccc(OC)cc3)c2N)cc1,,,rat liver microsomes,"concentration not given, time not given",,remaining compound,51.6%
O=C1NC2(CC2)COc2ncc(F)cc2[C@H]2COCCN2c2ccn3ncc1c3n2,,,"Sprague-Dawley rat, female, serum","oral, 20 mg/kg/day, 4 weeks daily, end of recovery period",,alkaline phosphatase activity,46.3 ± 15.5 U/L
N#[11C]c1ccc(-c2csc(NN=C3CCCC3)n2)cc1,,,"C57BL/6 mice, male, bladder","intravenous, 3 MBq, 1 min",,radioactivity uptake,1.85 ± 0.6 %ID/g
CCCCC(CC)COC(=O)CC(C(=O)OCC(CC)CCCC)S(=O)(=O)O.COC(=O)Nc1nc2cc(C(=O)c3ccc(F)cc3)ccc2[nH]1 (stereo not shown),,visual inspection,Labrasol,,,solubility,~30 mg/mL
CSCC[C@H](N)C(=O)N[C@@H](C)C(=O)N[C@@H](Cc1c[nH]c2ccccc12)C(=O)N[C@@H](Cc1c[nH]cn1)C(=O)N[C@@H](CC(=O)O)C(=O)N[C@@H](CC(=O)O)C(=O)N[C@@H](CCC(=O)O)C(=O)N[C@@H](CCC(=O)O)C(=O)N[C@@H](Cc1ccccc1)C(=O)N[C@@H](C)C(=O)N[C@@H](CCCNC(=N)N)C(=O)N[C@@H](CCCNC(=N)N)C(=O)N[C@@H](CCCNC(=N)N)C(=O)N[C@@H](CCCNC(=N)N)C(=O)NCCCCCC(=O)NCCCCC(NC(=O)CCCCCNC(=O)[C@H](CCCNC(=N)N)NC(=O)[C@H](CCCNC(=N)N)NC(=O)[C@H](CCCNC(=N)N)NC(=O)[C@H](CCCNC(=N)N)NC(=O)[C@H](C)NC(=O)[C@H](Cc1ccccc1)NC(=O)[C@H](CCC(=O)O)NC(=O)[C@H](CCC(=O)O)NC(=O)[C@H](CC(=O)O)NC(=O)[C@H](CC(=O)O)NC(=O)[C@H](Cc1c[nH]cn1)NC(=O)[C@H](Cc1c[nH]c2ccccc12)NC(=O)[C@H](C)NC(=O)[C@@H](N)CCSC)C(=O)NCCCCC(NC(=O)C(CCCCNC(=O)CCCCCNC(=O)[C@H](CCCNC(=N)N)NC(=O)[C@H](CCCNC(=N)N)NC(=O)[C@H](CCCNC(=N)N)NC(=O)[C@H](CCCNC(=N)N)NC(=O)[C@H](C)NC(=O)[C@H](Cc1ccccc1)NC(=O)[C@H](CCC(=O)O)NC(=O)[C@H](CCC(=O)O)NC(=O)[C@H](CC(=O)O)NC(=O)[C@H](CC(=O)O)NC(=O)[C@H](Cc1c[nH]cn1)NC(=O)[C@H](Cc1c[nH]c2ccccc12)NC(=O)[C@H](C)NC(=O)[C@@H](N)CCSC)NC(=O)CCCCCNC(=O)[C@H](CCCNC(=N)N)NC(=O)[C@H](CCCNC(=N)N)NC(=O)[C@H](CCCNC(=N)N)NC(=O)[C@H](CCCNC(=N)N)NC(=O)[C@H](C)NC(=O)[C@H](Cc1ccccc1)NC(=O)[C@H](CCC(=O)O)NC(=O)[C@H](CCC(=O)O)NC(=O)[C@H](CC(=O)O)NC(=O)[C@H](CC(=O)O)NC(=O)[C@H](Cc1c[nH]cn1)NC(=O)[C@H](Cc1c[nH]c2ccccc12)NC(=O)[C@H](C)NC(=O)[C@@H](N)CCSC)C(N)=O (stereo partly shown),,,"C57BL/6 mouse female, stomach","dose not given, 6 h",reference: total,mean tissue distribution,26%
CN1Cc2cc(Cl)ccc2-n2c(nnc2C2CCN(c3cccc(F)n3)CC2)C1,,,"Sprague-Dawley rats male, cortex","intravenous, 0.03 mg/kg",,AUC,3.86 ng·h/mL
NC1CCN(C(=O)Oc2ccc(C3CCCC4(C3)OOC3(O4)C4CC5CC(C4)CC3C5)cc2)CC1 (racemic),,,"male ICR mice, plasma","intravenous, 10 mg/kg",,AUC(0-t),1130 ng·h/mL
COc1ccccc1-c1n[nH]c2nc(NC3CCN(C(=O)Cc4ccc(F)cc4F)CC3)ncc12,,"bead binding, competition bead pull-down, item: LINJ.36.1320",Leishmania donovani extract,10 µM,reference: vehicle,relative abundance,1.11
Cc1cc(-c2ccc3ccccc3c2)nnc1NCCN1CCN(C)CC1,"Cytochrome P450 2D6 (CYP2D6, Homo sapiens, UniProt P10635)",substrate,recombinant enzyme,"100 nM, 1 h",,remaining compound,119%
CC[C@H](C)[C@H](NC(=O)[C@H](CCCCN)NC(=O)CNC(=O)[C@H](CC(C)C)NC(=O)[C@H](Cc1ccccc1)NC(=O)[C@H](CCCCN)NC(=O)[C@H](CO)NC(=O)[C@H](Cc1ccccc1)NC(=O)[C@H](Cc1c[nH]c2ccccc12)NC(=O)[C@H](CCC(N)=O)NC(=O)[C@@H](NC(=O)[C@H](Cc1ccccc1)NC(=O)CCCCCNC(=O)CN1CCN(CC(=O)O)CCN(CC(=O)O)CCN(CC(=O)O)CC1)C(C)C)C(=O)N[C@@H](CCC(=O)O)C(=O)N1CCC[C@H]1C(=O)N[C@@H](CC(=O)O)C(=O)N[C@H](C(=O)N[C@@H](CO)C(=O)N[C@@H](CCC(N)=O)C(=O)N[C@H](C(=O)N[C@@H](CCC(N)=O)C(=O)N[C@@H](CC(=O)O)C(=O)N1CCC[C@H]1C(=O)N[C@@H](CC(N)=O)C(=O)N[C@@H](CC(=O)O)C(=O)N[C@@H](CCC(N)=O)C(=O)N[C@@H](Cc1ccc(O)cc1)C(=O)N[C@@H](CCC(=O)O)C(=O)N1CCC[C@H]1C(=O)N[C@@H](Cc1ccccc1)C(=O)O)C(C)C)C(C)C [copper-64 labelled],,dynamic PET,"mouse both sexes, CT26 tumour, checkpoint inhibitor-treated, tumour","intravenous, 100 µCi/mouse, 150 s",,SUVmean,2.28 SUV
CC[C@H](C)[C@H](NC(=O)[C@H](CCCN)NC(=O)[C@H](CCCNC(=N)N)NC(=O)[C@@H]1CCCN1C(=O)[C@@H]1CCCN1C(=O)[C@H](CCCNC(=N)N)NC(=O)[C@@H]1CCCN1C(=O)[C@H](CCCNC(=N)N)NC(=O)[C@@H]1CCCN1C(=O)[C@H](CC(C)C)NC(=O)[C@H](Cc1ccc(O)cc1)NC(=O)[C@@H]1CCCN1C(=O)[C@@H]1CCCN1C(=O)[C@H](CCCCN)NC(=O)[C@H](CC(=O)O)NC(=O)[C@@H](N)C(C)C)C(=O)N[C@@H](Cc1ccc(O)cc1)C(=O)N[C@@H](CC(N)=O)C(=O)N[C@@H](CCCN)C(N)=O,,LC-MS,"CD-1 mice, urine","subcutaneous, dose not given, 1 h",,urine concentration,not detected
Cc1nc2cccc(OCC(C)(C)C(=O)NC(C)C)c2c(N)c1C(=O)[O-].[Na+],Salmonella typhimurium,,TA100,"0.80 mg per plate, without S9, plate incorporation",,revertant colonies per plate,145 ± 13
CC[C@H](C)[C@H](NC(=O)CN)C(=O)N[C@@H](CCCNC(=N)N)C(=O)N[C@@H](CCCCN)C(=O)N[C@@H](Cc1c[nH]c2ccccc12)C(=O)N[C@@H](Cc1ccccc1)C(=O)N[C@@H](CCCCN)C(=O)N[C@@H](CCCCN)C(=O)N[C@@H](C)C(=O)N[C@@H](C)C(=O)N[C@@H](Cc1c[nH]cn1)C(=O)N[C@H](C(=O)NCC(=O)N[C@@H](CCCCN)C(=O)N[C@@H](CCCCN)C(=O)N[C@H](C(=O)NCC(=O)N[C@@H](CCCCN)C(=O)N[C@H](C(=O)N[C@@H](C)C(=O)N[C@@H](CC(C)C)C(=O)N[C@@H](CC(N)=O)C(=O)N[C@@H](C)C(=O)N[C@@H](Cc1ccc(O)cc1)C(=O)N[C@@H](CC(C)C)C(N)=O)C(C)C)C(C)C)C(C)C,,,"zebrafish embryos 28 hpf, E3 medium",24 h,,chronic toxic concentration,5 µM
C/C(=N\OCCCN1CCCCC1)c1ccc(C(F)(F)F)cc1,,,rhesus monkey,"dose not given, after dosing",,diastolic blood pressure,83 mmHg and 72 mmHg

# Repeated from above:
SMILES,tested on,test,system,conditions,scale,endpoint,value
CCN(CC)CCOc1ccc(-c2nnn(Cc3ccc(OC)cc3)c2N)cc1,,,rat liver microsomes,"concentration not given, time not given",,remaining compound,51.6%
O=C1NC2(CC2)COc2ncc(F)cc2[C@H]2COCCN2c2ccn3ncc1c3n2,,,"Sprague-Dawley rat, female, serum","oral, 20 mg/kg/day, 4 weeks daily, end of recovery period",,alkaline phosphatase activity,46.3 ± 15.5 U/L
